# Assay results of several laboratories.
# Compare with care: the assays were run in different laboratories.
# JAK2: Tyrosine-protein kinase JAK2 (JAK2, Homo sapiens, UniProt O60674)
# Chain of UniProt O60674 (whole entry, unmodified, looked up): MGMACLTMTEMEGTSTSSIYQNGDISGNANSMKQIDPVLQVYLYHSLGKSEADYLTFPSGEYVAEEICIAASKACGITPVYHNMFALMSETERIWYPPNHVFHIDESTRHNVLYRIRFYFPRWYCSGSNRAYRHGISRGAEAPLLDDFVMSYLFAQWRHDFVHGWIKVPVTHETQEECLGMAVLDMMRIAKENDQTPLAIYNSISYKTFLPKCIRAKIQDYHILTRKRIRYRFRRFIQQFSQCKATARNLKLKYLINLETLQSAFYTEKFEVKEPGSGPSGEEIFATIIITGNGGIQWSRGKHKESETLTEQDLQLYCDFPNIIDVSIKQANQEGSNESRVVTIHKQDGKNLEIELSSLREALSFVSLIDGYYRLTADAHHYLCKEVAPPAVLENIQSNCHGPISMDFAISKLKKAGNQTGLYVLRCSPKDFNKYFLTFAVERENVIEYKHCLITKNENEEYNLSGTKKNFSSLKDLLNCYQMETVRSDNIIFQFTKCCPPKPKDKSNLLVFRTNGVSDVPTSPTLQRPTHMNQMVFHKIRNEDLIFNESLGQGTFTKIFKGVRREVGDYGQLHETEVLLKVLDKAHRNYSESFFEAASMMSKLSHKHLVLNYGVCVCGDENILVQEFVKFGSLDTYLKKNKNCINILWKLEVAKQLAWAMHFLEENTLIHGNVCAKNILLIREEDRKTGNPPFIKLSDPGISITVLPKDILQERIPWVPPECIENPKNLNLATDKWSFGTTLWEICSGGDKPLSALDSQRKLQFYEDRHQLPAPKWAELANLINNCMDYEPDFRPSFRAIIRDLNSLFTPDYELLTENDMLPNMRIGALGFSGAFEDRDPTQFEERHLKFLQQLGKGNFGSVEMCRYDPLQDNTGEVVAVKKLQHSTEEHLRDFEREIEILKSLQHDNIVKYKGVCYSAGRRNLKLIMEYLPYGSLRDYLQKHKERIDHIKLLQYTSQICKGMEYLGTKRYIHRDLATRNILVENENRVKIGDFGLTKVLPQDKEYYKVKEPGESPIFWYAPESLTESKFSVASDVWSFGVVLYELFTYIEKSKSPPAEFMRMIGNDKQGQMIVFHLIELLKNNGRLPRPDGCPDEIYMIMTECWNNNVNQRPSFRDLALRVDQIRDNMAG
# JAK2 V617F: Tyrosine-protein kinase JAK2 (JAK2, Homo sapiens, UniProt O60674, V617F)
SMILES,target,assay,test system,conditions,how to read,endpoint,value
Cc1[nH]c(/C=C2\C(=O)Nc3ccc(F)cc32)c(C)c1C(=O)N[C@H]1CCN(C(=O)N(C)C)C1,JAK2,"kinase activity, inhibitor",,1 µM,relative to: no-compound control,remaining activity,97%
CCCOc1ccc(OC)c(F)c1C(=O)c1ccc(C(=O)N[C@@H]2CNC[C@H]2NC(=O)c2ccc3[nH]ncc3c2)cc1,JAK2,enzyme activity,,10 µM,,remaining activity,88%
COc1cc(N2CCN(C)CC2)ccc1Nc1nc(N)n(C(=O)NCc2ccccc2S(=O)(=O)C(C)C)n1,JAK2,enzyme activity,,10 µM,relative to: control,remaining activity,32%
O=C(NC1CCC1)c1ccc2nc(-c3cccc(NS(=O)(=O)NCCN4CCCCC4)c3)cn2c1,JAK2,enzyme activity,,10 µM,,remaining activity,98%
O=C1NC(=O)/C(=C/c2ccc(-c3ccc(F)cc3O)o2)S1,JAK2,enzyme activity,,10 µM,,remaining activity,60%
[2H]c1cc(C)c(NC(=O)c2cnc(Nc3cc(N4CCCCC4)nc(C)n3)s2)c(Cl)c1,JAK2,,,0.01 µM,,inhibition,< 30%
C[C@@H](c1ccc(-n2cnc3c(N)ncnc32)cc1)N1CCc2nn(C)c(Cc3ccccc3)c2C1=O,JAK2,KINOMEscan,,0.1 µM,relative to: DMSO control,remaining binding,65%
C=CC(=O)N1CCC(COCC(=O)N2CCN(c3nc(-c4cnc(N)nc4C(F)F)nc(N4CCOC[C@@H]4C)n3)CC2)CC1,JAK2,KINOMEscan,,1 µM,relative to: DMSO control,remaining binding,90%
CC(=O)Nc1cc(Oc2ccc3c(nc(Nc4ccc(F)cc4F)n3C)c2C)ccn1,JAK2 V617F,"kinase activity, KiNativ chemical proteomics",SET-2,"5 µM, 4 h",,inhibition,85.9%
CCN(CC)c1ccc(C2=NNC(=O)CC2C)cc1[N+](=O)[O-] (stereo not shown),JAK2,"enzyme activity, inhibitor",,10 µM,relative to: vehicle,remaining activity,106%
COc1cc(N2CCN(C)CC2)ccc1Nc1nc(N)n(C(=S)NCc2c(Cl)cccc2Cl)n1,JAK2,enzyme activity,,10 µM,relative to: control,remaining activity,0.4%
C1=C/COCc2cc(ccc2OCCN2CCCC2)Nc2nccc(n2)-c2cccc(c2)COC/1,JAK2,kinase binding panel,,concentration not given,,remaining binding,6.8%
CCN1CCN(Cc2ccc(NC(=O)c3ccc(C)c(-c4ccc5nc(NC(=O)C6CC6)cn5c4)c3)cc2C(F)(F)F)CC1,JAK2 V617F,"kinase activity, inhibitor, KiNativ profiling",SET-2,5 µM,,inhibition,93.9%
C=CC(=O)N1CCC(C(=O)NCC(=O)N2CCN(c3nc(-c4cnc(N)nc4C(F)F)nc(N4CCOCC4)n3)CC2)CC1,JAK2,KINOMEscan,,1 µM,,remaining binding,88%
COc1cc(F)ccc1-c1ncnc(Nc2cccc(C[S@](C)(=N)=O)c2)n1,JAK2,kinase activity,,"10 µM, together with: 10 µM ATP",,remaining activity,89%
Cc1cc(Nc2cc(N3CCN(C)CC3)nc(Sc3ccc(NC(=O)C4CC4)cc3)n2)[nH]n1,JAK2,"kinase activity, KinaseProfiler",,"0.03 µM, species human",relative to: control,remaining activity,109%

# A few entries again:
SMILES,target,assay,test system,conditions,how to read,endpoint,value
C1=C/COCc2cc(ccc2OCCN2CCCC2)Nc2nccc(n2)-c2cccc(c2)COC/1,JAK2,kinase binding panel,,concentration not given,,remaining binding,6.8%
COc1cc(N2CCN(C)CC2)ccc1Nc1nc(N)n(C(=S)NCc2c(Cl)cccc2Cl)n1,JAK2,enzyme activity,,10 µM,relative to: control,remaining activity,0.4%
